Experimental data pooled from the literature.
Each numbered part is a random draw from the data of one study; scales do not carry over between parts. Several values in a cell are separate wells, animals, samples, runs or records.

Study 1
Target: RNA binding protein fox-1 homolog 2, RRM domain, GST-SBP tag (RBFOX2, Homo sapiens, UniProt O43251-10, residues 100-194)
Technique: RNA Bind-n-Seq
Form: RNA
Sample: in vitro
Tested at: 365 nM
Notes: natural RNA segment, single round, ends assumed
Relative to: no-protein control
Reading: higher = stronger binding
Endpoint: RBNS enrichment (R)
Shared flanks, not repeated: GGGAGUUCUACAGUCCGACGAUC … UGGAAUUCUCGGGUGCCAA
Construct (chain): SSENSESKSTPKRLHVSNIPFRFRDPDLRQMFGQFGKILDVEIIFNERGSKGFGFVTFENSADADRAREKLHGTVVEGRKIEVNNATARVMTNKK
CAUUCUGGAACUGCUGGUCAGGGGACUUUGUCGCCCUGUGCACUAAAAGGGCCAGAUUUUCAGCAGCCAAGGACAUCCAUACCCAAGUGAAUGUGAUGGGACUUAAAAGA: 1.44
UGCCAGCAUUUCUGGAUGGAUAUAGGGACUAUCAUUAGUAUCCUAAUACACGGUGAUUUUAAAACAACCAUAAAAUUGAUUCAGAGUCCACUGACCCUUACAGAUGUAGG: 0.281
AAUUUGGGAUACAUAUAAGUUAAUCUUAUCAAAUAAUAUUUAAAAUUGUCAAUCAAUUUUACCAAUAACAAAGCCAAUAAUAUACUGUUAACAAAGACAAACUGCUUCGA: 0.474
AGGAAGAACAGCUGAUAGAAAUUCAAGAUUACUAUAAUGGCUGUUAUUAUACACAGCUCUGUAAACUACCACUCAGCCCUGUGUUGGGGUCCUCAAAGAAGUAAGGCCAC: 0.299
UAAAAGUGAAAGCCCUCUGUCACGAAACAACAUGGGUGGUCCAAAGAUCAGGGGCAAGACAACUCAGCACACCUGGAACCCUUGGGGUCUUUAAGCAGCCGUGUCCAGGC: 0.629
UAAAUGAACUUUGAUCUCUGUUUUAAAGAUUAUUAAAAAACAUUGUGUAUCUAUACAUAUGGCUCUUGAGGACUUAGCUUUCACUACACUACAGGAUAUGAUCUCCAUGU: 0.405
UCCAUUGUCCCGAUCCAGCUAUCACCCAGGGGUCCAUACAUUUUCUUCAUGUUUCUUCUUUGUAUAUUUGGUGACUGUAUUGUCAUAGAUGUACAUAUCGUGUCGGUAGG: 0.573
UUCACAUGAAAAACACAGCCAGCCCAAGAUGACUUAUCUGGGUUUAGGAUUCAAUAGUAUUCACUAACUGCUUAUUACAUGAGCAAUUUCAUCAAAUCUCCAAACUCUUA: 0.323
GCAUCUUCUAGAUGGCAGAGGGGUGAAUGGCAGGGCCAGGAACCAGGCUGCCCGGGUUCCCAUUCUGCUUCUGCCACUUCCAGCUGUGUGGCUUUAGGUGAGCCUUCACC: 0.743
UAGGUCAAGGACAAGUGCCUUCUAAGGCAUGGAUAAGGGCUUUCUUCUUAUGAAAGUCUAGACUGUCUUACUGUGAAGAUGGCCAGGGAGGAUAGCAAGCAAUGGCAUUC: 0.498
UCACUAUGUGGCCCAGGCUGGUCUCAAACUUCUGGCCUUAAGUGAUGCUCCUGUCCUUGGCCUCCCAAAGUGCUGGGAUUACAGGUGUGAGCCACUGCACCCAGCCCACU: 0.269
UAAAAGUUCACGGUAUGAGAGUUAGUGCUUCUUCCCAAUUUGACCGUUGUAUAUUUUUGGAAACGUUCUUUAGAAUACAUUUCUGCAUUAUUUGUAUGCUUCCCAGAGAA: 1.18

Study 2
Target: Centromere-binding protein 1, full length, His-tagged (CBF1, Saccharomyces cerevisiae, UniProt P17106, residues 1-351)
Sequence of UniProt P17106 (whole entry, looked up): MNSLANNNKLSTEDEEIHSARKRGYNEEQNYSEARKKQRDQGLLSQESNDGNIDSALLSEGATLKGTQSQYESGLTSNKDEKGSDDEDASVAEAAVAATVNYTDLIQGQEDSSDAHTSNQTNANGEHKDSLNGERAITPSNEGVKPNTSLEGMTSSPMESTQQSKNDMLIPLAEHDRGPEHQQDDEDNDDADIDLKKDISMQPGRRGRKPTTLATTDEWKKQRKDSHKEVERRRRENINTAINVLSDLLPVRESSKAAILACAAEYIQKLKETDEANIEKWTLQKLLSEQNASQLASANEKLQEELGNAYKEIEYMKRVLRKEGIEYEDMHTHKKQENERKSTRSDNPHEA
Technique: competition protein-binding microarray
Form: double-stranded DNA, one strand shown
Sample: in vitro
Tested at: 2 µM
Notes: whole 60-bp probe, lowest competitor level
Together with: Pho4 competitor, 0.05 µM
Reading: higher = stronger binding
Endpoint: fluorescence intensity
Shared flanks, not repeated: … GTCTTGATTCGCTTGACGCTGCTG
AAATTACTAAGTTGTTTAGTGGGTGACGCCGTATGA: 72 a.u.
GTCTTGTCTCATTGCACGGTGGGTGTCCCCACTTCA: 77.3 a.u.
GTCTTGTCTCATTGACTTGTGGGTGTCCCCACTTCA: 96.8 a.u.
TTGCTTGCGCTTCTGCATGTGCTTGTGCTTGTGCTT: 83.7 a.u.
TTCAACCTTCCCTAACACATGAAACTATTATTGGTT: 82 a.u.
ATAAGAAGTGTTTGGAACGTGCAAATCTTTCATAAC: 119 a.u.
CTTTCCCGATCTTGTGGCGTGGGTGTAGCACATTTG: 65.5 a.u.
GTAACTGTTGTATTGAACGTGGACCAGGACAAGAAA: 69.1 a.u.

Study 3
Target: Ras GTPase-activating protein-binding protein 1, RRM domain (G3BP1, Homo sapiens, UniProt Q13283)
Sequence of UniProt Q13283 (whole entry, looked up): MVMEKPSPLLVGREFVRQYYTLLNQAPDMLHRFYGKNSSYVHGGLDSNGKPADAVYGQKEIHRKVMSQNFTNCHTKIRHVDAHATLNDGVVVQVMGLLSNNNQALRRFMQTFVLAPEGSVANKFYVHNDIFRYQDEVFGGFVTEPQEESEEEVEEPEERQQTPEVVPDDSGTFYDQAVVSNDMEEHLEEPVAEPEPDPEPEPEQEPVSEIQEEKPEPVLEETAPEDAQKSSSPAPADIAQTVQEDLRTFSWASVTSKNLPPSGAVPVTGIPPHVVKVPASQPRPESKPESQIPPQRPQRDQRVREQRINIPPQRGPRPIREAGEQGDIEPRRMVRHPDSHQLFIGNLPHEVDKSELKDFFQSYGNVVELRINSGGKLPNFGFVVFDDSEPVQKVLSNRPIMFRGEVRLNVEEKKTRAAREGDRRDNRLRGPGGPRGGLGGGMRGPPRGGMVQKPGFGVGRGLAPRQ
Technique: RNA Bind-n-Seq
Form: RNA
Sample: in vitro
Tested at: 1 µM
Notes: whole 134-nt RNA, ends assumed
Together with: 150 mM KCl
Relative to: input library
Reading: higher = stronger binding
Endpoint: log2 enrichment
Shared flanks, not repeated: GGGAGUUCUACAGUCCGACGAUC … UGGAAUUCUCGGGUGUCAAGG
AAGUCCUGUGCUACACAUCGUAUGUACCGAAUCGGGGCCCGGGCCCGGGGCCCGGGGAAAGUAUUAUGUUACGCCGUUCGGAUCUGCACU: -1.24
GUCCUGUGCUACACAUCGUAUGUACCGAAUCGGGGAAAAAGGGGAAAGGGGUUUGGGGAAAGUAUUAUGUUACGCCGUUCGGAUCUGCAC: 1.27
CCUCAAGUCCUGUGCUACACAUCGUAUGUACCGAAUCGGGUGGGUGGGGUGGGAAAGUAUUAUGUUACGCCGUUCGGAUCUGCACUUCCA: 0.726
UGGCCCUGGUGGCAUGCGGGGAGGAAGAGGUGGCCUCAUGGAUCGUGGUGGUCCCGGUGGAAUGUUCAGAGGUGGCCGUGGUGGAGACGG: 1.69
AGUCCUGUGCUACACAUCGUAUGUACCGAAUCGGGCCCCGGCCCCGGGGCCCCGGGGAAAGUAUUAUGUUACGCCGUUCGGAUCUGCACU: -0.739
UGGCCCGGGUGGCAUGCGGGGAGGAAGAGGUGGCCUCAUGGAUCGUGGUGGUCCCGGUGGAAUGUUCAGAGGUGGCCGUGGUGGAGACAG: 0.531
UGGCCCUGGUGGUAUGCGGGGAGGAAGAGGUGGCCUCAUGGAUCGUGGUGGUCCCGGUGGAAUGUUCAGAGGUGGCCGUGGUGGAGACAG: 0.88
UCCUCAAGUCCUGUGCUACACAUCGUAUGUACCGAAUCGGAGGUUUGGUGGAAAGUAUUAUGUUACGCCGUUCGGAUCUGCACUUCCAGC: -0.285
AAGUCCUGUGCUACACAUCGUAUGUACCGAAUCGGCCCCGGCCCCGGGGCCCCGGGGAAAGUAUUAUGUUACGCCGUUCGGAUCUGCACU: -0.628
UGGCCAAUAGCAUCCUUUUCCAGUCUUCCGGUCUGACAAAUGGAAUAAUAGAAGAAAAGGACAUACAUGAAGAAUUGCCAAAACGGAAAG: -0.0823
CACAGACAACACGCACCCACACAGACACAGAGGGAAGGGGUUGGGAUGGGGACAGGGUGCACAGCAGAAAGGGGUAGGACCCCAGCCCCU: -0.0894
UCAAGUCCUGUGCUACACAUCGUAUGUACCGAAUCGGGUUUGGUUUGGGUUUGGGAAAGUAUUAUGUUACGCCGUUCGGAUCUGCACUUC: -0.385
CGCUAAAGAGGAGCACGGUGGACUGAUGUGAGCUUCUCUUCCUGCCCCUUCCUCCCUGAUGUCCACUCCCUUCACCUUCCUCACGCCCGU: -0.295
UGGCCCUGGUGGCAUGCGGGGAGGAAGAGGUAGCCUCAUGGAUCGUGGUGGUCCCGGUGGAAUGUUCAGAGGUGGCCGUGGUGGAGACAG: 0.805

Mixed results
PhoQ, residues 284 288 289 292 302 303 TAVSDG
fold induction (PhoP, residues 12 14 15 18 19 LWHSL (Escherichia coli, UniProt P23836); Sort-seq, measured: YFP reporter; E. coli; PhoQ-PhoP variant library, together with: 10 µM Mg2+; relative to: high Mg2+ state, higher = stronger signaling): 5.35 and 5.26

Repeated from above (study 3):
AAGUCCUGUGCUACACAUCGUAUGUACCGAAUCGGGGCCCGGGCCCGGGGCCCGGGGAAAGUAUUAUGUUACGCCGUUCGGAUCUGCACU: -1.24
UCAAGUCCUGUGCUACACAUCGUAUGUACCGAAUCGGGUUUGGUUUGGGUUUGGGAAAGUAUUAUGUUACGCCGUUCGGAUCUGCACUUC: -0.385
UGGCCCGGGUGGCAUGCGGGGAGGAAGAGGUGGCCUCAUGGAUCGUGGUGGUCCCGGUGGAAUGUUCAGAGGUGGCCGUGGUGGAGACAG: 0.531
AAGUCCUGUGCUACACAUCGUAUGUACCGAAUCGGCCCCGGCCCCGGGGCCCCGGGGAAAGUAUUAUGUUACGCCGUUCGGAUCUGCACU: -0.628
UGGCCCUGGUGGUAUGCGGGGAGGAAGAGGUGGCCUCAUGGAUCGUGGUGGUCCCGGUGGAAUGUUCAGAGGUGGCCGUGGUGGAGACAG: 0.88
